Published values gathered from unrelated publications.
Each line is one published result; not all experiments were run side by side.
UniProt Q6ZWH5, sequence (whole entry, looked up): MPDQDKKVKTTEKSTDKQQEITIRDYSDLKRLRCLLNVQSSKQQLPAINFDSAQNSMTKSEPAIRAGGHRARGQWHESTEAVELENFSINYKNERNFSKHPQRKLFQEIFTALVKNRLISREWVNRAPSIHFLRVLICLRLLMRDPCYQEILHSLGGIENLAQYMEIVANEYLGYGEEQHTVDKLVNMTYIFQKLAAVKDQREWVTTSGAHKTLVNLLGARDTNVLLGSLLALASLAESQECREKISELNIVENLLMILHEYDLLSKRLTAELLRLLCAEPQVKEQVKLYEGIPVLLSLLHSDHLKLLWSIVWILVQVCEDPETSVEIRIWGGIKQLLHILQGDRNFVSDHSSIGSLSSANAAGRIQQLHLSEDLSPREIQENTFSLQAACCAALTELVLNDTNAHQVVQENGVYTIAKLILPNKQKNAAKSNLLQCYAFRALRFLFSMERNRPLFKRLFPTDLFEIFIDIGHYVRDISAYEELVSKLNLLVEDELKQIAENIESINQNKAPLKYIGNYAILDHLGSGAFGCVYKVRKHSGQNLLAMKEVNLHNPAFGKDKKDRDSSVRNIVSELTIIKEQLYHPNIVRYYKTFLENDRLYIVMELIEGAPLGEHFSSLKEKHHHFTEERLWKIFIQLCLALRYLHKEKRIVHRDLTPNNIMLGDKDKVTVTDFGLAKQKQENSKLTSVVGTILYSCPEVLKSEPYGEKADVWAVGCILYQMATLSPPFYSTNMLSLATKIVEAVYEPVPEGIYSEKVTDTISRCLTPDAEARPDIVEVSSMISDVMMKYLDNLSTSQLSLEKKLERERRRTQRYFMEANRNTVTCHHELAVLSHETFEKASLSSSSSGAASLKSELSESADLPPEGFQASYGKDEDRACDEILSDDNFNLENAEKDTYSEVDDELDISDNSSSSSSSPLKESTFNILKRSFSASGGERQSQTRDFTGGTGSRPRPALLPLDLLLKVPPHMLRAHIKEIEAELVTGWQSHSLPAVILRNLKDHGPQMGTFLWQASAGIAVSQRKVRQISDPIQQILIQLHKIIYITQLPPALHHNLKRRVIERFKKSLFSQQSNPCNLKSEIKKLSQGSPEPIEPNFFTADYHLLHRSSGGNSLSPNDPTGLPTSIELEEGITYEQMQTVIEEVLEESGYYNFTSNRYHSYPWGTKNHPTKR
UniProt Q16816, sequence (whole entry, looked up): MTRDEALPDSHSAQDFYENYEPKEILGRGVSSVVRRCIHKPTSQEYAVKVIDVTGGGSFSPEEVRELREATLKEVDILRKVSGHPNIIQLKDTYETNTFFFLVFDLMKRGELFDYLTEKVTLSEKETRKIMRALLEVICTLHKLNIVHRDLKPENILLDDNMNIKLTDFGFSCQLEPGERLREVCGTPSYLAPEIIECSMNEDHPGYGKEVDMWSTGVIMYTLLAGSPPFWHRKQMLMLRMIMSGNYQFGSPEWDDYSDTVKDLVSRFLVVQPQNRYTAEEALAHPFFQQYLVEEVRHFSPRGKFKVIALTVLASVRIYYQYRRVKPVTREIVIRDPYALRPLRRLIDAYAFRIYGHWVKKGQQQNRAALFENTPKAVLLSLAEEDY
UniProt Q6P3R8, sequence (whole entry, looked up): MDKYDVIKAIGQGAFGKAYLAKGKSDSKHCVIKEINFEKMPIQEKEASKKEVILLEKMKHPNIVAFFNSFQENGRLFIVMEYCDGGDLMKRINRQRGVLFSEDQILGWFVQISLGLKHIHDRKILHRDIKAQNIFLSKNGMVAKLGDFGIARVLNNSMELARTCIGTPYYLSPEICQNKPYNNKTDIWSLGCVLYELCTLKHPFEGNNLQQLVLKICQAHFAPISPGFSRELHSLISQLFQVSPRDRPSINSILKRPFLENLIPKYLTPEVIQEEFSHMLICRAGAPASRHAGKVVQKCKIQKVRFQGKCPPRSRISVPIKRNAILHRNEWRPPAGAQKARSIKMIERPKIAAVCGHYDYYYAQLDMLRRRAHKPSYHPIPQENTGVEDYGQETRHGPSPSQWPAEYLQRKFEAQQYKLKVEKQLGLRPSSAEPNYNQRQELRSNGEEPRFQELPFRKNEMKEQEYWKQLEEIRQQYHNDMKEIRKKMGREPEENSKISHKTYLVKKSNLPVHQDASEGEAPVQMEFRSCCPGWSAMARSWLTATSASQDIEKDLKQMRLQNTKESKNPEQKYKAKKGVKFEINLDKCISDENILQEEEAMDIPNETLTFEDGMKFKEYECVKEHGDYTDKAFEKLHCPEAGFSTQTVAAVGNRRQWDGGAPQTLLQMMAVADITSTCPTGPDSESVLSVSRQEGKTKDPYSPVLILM
UniProt P51812, sequence (whole entry, looked up): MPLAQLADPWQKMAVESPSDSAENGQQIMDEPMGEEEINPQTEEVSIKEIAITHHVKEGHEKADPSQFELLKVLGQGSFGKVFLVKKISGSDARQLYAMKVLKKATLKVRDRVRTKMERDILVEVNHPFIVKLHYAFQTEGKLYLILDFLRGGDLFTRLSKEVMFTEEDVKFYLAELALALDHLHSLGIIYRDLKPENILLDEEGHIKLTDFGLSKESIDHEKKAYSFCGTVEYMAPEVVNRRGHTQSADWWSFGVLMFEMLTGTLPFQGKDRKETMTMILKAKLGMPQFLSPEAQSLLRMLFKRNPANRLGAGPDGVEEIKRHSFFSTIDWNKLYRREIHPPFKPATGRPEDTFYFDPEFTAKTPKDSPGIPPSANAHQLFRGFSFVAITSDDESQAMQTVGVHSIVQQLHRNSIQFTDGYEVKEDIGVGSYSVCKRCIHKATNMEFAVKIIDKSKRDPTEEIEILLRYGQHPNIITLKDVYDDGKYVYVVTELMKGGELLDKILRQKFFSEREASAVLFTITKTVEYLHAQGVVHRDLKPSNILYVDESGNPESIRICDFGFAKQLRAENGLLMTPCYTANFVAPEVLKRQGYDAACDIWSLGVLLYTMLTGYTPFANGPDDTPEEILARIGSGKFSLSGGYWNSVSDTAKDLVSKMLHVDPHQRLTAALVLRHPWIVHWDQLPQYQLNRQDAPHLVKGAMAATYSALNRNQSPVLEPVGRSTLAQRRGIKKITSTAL

`C=CC(=O)N1CCC(COCC(=O)N2CCN(c3nc(-c4cnc(N)nc4C(F)F)nc(N4CCOC[C@@H]4C)n3)CC2)CC1` has a remaining binding of 100% (NEK5 (Homo sapiens, UniProt Q6P3R8); binding, competition with immobilised ligand; 1 µM).
With `CC(=O)Nc1ccc(Oc2nnc(-c3ccc(Cl)cc3)c3ccccc23)cc1` the cell death was 0.622% (HepG2; cell growth or viability, MTT; 78 nM).
The remaining binding of `Cc1cc([C@@H](C)Nc2ccccc2C(=O)O)c2nc(N3CCC(F)(F)CC3)c(C#N)c(=O)n2c1` is reported as 96% (Ribosomal protein S6 kinase alpha-3, N-terminal kinase domain (RPS6KA3, Homo sapiens, UniProt P51812); binding, competition with immobilised ligand; 1 µM).
`CCCCC(=O)Nc1ccc(-c2ccc3ncn(CCC)c(=O)c3c2)cn1` has a remaining binding of 100% (NEK10 (Homo sapiens, UniProt Q6ZWH5); binding, competition with immobilised ligand; 0.5 µM).
`CC(=NNC(=O)c1ccc(N)cc1)c1ccc(Nc2nnc(-c3ccc(Cl)cc3)c3ccccc23)cc1` has a viability of 20.8% (HepG2; cell growth or viability, MTT; 2.5 µM, 24 h).
For `Cc1cc(C)c(C#N)c(SCC(=O)c2ccc(F)cc2)n1`, the EC50 was 61.9 µM (Leishmania infantum; parasite growth; mouse Macrophage; intracellular, amastigote).
The inhibition of `C=C[C@@]1(C)C=C2CC[C@@H]3[C@](C)(CCC[C@@]3(C)C(=O)O)[C@H]2CC1` is reported as 62.5% (Helicobacter pylori; microbial growth, broth dilution; 3.9 µg/mL).
For `Cc1cc(NS(=O)(=O)c2ccc(N=NN(O)c3ccccc3)cc2)no1`, the inhibition was 32.1% (DPPH scavenging, absorbance; 180 µg/mL).
`COc1cc(-c2cncc3c2CN(C)Cc2cc(N4CCNCC4)ccc2-3)cc(OC)c1OC` gave a remaining activity of 112% (PHKG1 (Homo sapiens, UniProt Q16816); enzyme activity, inhibitor; 1 µM).
For `CCCN(O)N=Nc1ccc(S(=O)(=O)Nc2onc(C)c2C)cc1`, the inhibition was 8.22% (DPPH scavenging, absorbance; 60 µg/mL).
`COc1cc(-c2cc(=O)c3c(O)cc(O)cc3o2)ccc1O` gave an inhibition of 100% (Helicobacter pylori; microbial growth, broth dilution; 7.81 µg/mL).
The viability of `O=C(Nc1ccccc1)Nc1ccc(Oc2nnc(-c3ccc(Cl)cc3)c3ccccc23)cc1` is reported as 55.9% (HepG2; cell growth or viability, MTT; 78 nM, 24 h).
The inhibition of `Cc1cc(NS(=O)(=O)c2ccc(N=NN(C)O)cc2)no1` is reported as 30.5% (DPPH scavenging, absorbance; 60 µg/mL).
